Experimental data from different studies.
Compare with care: the assays were run in different laboratories. ± marks the error that the study gave.

Structure (SMILES) | host | medium | route | dose | notes | with | half-life [h]
COc1cc2c(cc1OC)CC(=O)N(C[C@H]1CCCN(CCOc3ccc(F)cc3)C1)CC2 | male C57BL/6 mice |  | intraperitoneal | 20 mg/kg |  |  | 0.58
O=C(Cc1ccc(OCc2ccccc2)cc1)NC1(C(=O)O)CCN(C(=O)c2ccc(-c3cccc(Cl)c3)cc2)CC1 | BALB/c mice female |  | intraperitoneal | 20 mg/kg |  |  | 1.32
CC(C)(C)ONc1nc(Nc2ccnc(C(F)(F)F)c2)nc(-c2cccc(C(F)(F)F)n2)n1 | female Balb/cA nude mice xenograft | plasma | oral | 54.14 mg/kg |  |  | 9.4
O=C(NCCN1C(=O)C=CC1=O)[O][Pt-2]12([O]C(=O)NCCN3C(=O)C=CC3=O)([NH2+][C@@H]3CCCC[C@H]3[NH2+]1)[O]C(=O)C(=O)[O]2 | BALB/c mice | serum | intravenous | equimolar to 9 mg/kg oxaliplatin |  |  | 55.7
O=C(O)c1ccc(/C=C2\SC(=S)N(Cc3cccc(C(F)(F)F)c3)C2=O)cc1 | C57BL/6J mice | blood |  | dose not given |  |  | 2.4
CC=C1C(OC2OC(CO)C(O)C(O)C2O)OC=C(C(=O)OC)C1CC(=O)OCC1OC(OCCc2ccc(O)cc2)C(O)C(O)C1O (stereo not drawn) | Balb/c mice | plasma | oral | 109.2 mg/kg |  |  | 1.84
COc1cccc(OCCN2CCC[C@H](CN3CCc4cc(OC)c(OC)cc4CC3=O)C2)c1 | female C57BL/6 mice |  | intraperitoneal | 20 mg/kg |  |  | 0.65
Cc1cccc(O[C@H]2CCC[C@@H](C(C)CNCc3ccncc3)C2)c1 (relative stereo) | female C57BL/6J mice | plasma | intravenous | 3 mg/kg |  |  | 4.21
CCNCC#CCNc1ccnc2cc(Cl)ccc12 | male CD1 mice | plasma | intravenous | 10 mg/kg of DAQ | compound as metabolite |  | 4.8
CC(=O)N1CCC(NC(=O)Nc2ccc(OC(F)(F)F)cc2)CC1 | C57BL/6J mice, male, wild type |  | subcutaneous | 1 mg/kg |  | TPPU 0.3 mg/kg | 8.75
CCN(CC)CC#CCNc1ccnc2cc(Cl)ccc12 | male CD1 mice | plasma | oral | 20 mg/kg |  |  | 2.1
CCCCCCc1ccc(Oc2ccccc2C#N)c(O)c1 | CD-1 mice | plasma | subcutaneous | 100 mg/kg |  |  | 3.8 ± 2.4

For quick reference, copied from above:
Structure (SMILES) | host | medium | route | dose | notes | with | half-life [h]
CCNCC#CCNc1ccnc2cc(Cl)ccc12 | male CD1 mice | plasma | intravenous | 10 mg/kg of DAQ | compound as metabolite |  | 4.8
